Published values of several laboratories.
Each line is one published result; not all experiments were run side by side.
B1: pnp 1-763 D532A (Mycobacterium smegmatis, UniProt A0QVQ5); chain MSVVELEDGVYESTAVIDNGSFGTRTIRFETGRLAQQAAGSAVAYLDDETMLLSATTASKNPKDHFDFFPLTVDVEERMYAAGRIPGSFFRREGRPSTDAILTCRLIDRPLRPSFVDGLRNEIQVVVTVMSLDPKDLYDVLAINAASMSTQLAGLPFSGPVGGARIALIDGTWVAFPTVEQLERAVFDMVVAGRIVGDGDSADVAIMMVEAEATENVVELVAGGAQAPTEAVVAEGLEAAKPFIKALCAAQQELADRAAKPAGEYPVFPDYEADVYDAVASVATEALAEALTIAGKTERNDRTDEIKVEVLERLAEPYAGREKEIGAAFRSLTKKLVRQRILTDHFRIDGRGITDIRALSAEVAVIPRAHGSALFERGETQILGVTTLDMIKMAQQIDSLGPENTKRYMHHYNFPPYSTGETGRVGSPKRREIGHGALAERALVPVLPSIEEFPYAIRQVSEALGSNGSTSMGSVCASTLALLNAGVPLKAPVAGIAMGLVSDDVDVDGKVEKRYVALTDILGAEDAFGDMAFKVAGTKDFVTALQLDTKLDGIPSQVLAGALSQAKDARLTILDVMAEAIDRPDEMSPYAPRITTIKVPVDKIGEVIGPKGKMINSITEETGAQISIEDDGTVFVGAADGLSAQAAIDKINAIANPQLPKVGERFLGTVVKTTDFGAFVSLLPGRDGLVHISKLGKGKRIAKVEDVVKVGDKLRVEIADIDNRGKISLVLVAEESAESAESAGDKGAEKAEGAAADVTPAEA
B2: NFR5 276-595 V294E/Y297E/V298E (Lotus japonicus, UniProt Q70KR1); chain ALNRTASSAETADKLLSGESGEESKPNVYEIDEIMEATKDFSDECKVGESVYKANIEGRVVAVKKIKEGGANEELKILQKVNHGNLVKLMGVSSGYDGNCFLVYEYAENGSLAEWLFSKSSGTPNSLTWSQRISIAVDVAVGLQYMHEHTYPRIIHRDITTSNILLDSNFKAKIANFAMARTSTNPMMPKIDVFAFGVLLIELLTGRKAMTTKENGEVVMLWKDMWEIFDIEENREERIRKWMDPNLESFYHIDNALSLASLAVNCTADKSLSRPSMAEIVLSLSFLTQQSSNPTLERSLTSSGLDVEDDAHIVTSITAR
B3: mpr N176A (Mycobacterium smegmatis, UniProt Q50442); chain MTTPQPYPGMPSQPAPQGVPYPPQQPAKKKRKWPAIVGGVIALMIVGSIFNDDKKDTTPAENTATVAQAPAAAPTKEVPETTATINTPVRDGKFEFVVRSVEPGLSEVGDNPFLNQKAQGQFVIVTLSVQNIGDRPQGFSPSNQKLFDTEGRSFETDTSAQIALDNNDIAVWDNIAPGNTVDVSLVYDMPVDAVPASIELHDSMFSGGVTVNLTP
B4: fliC mature (Salmonella Typhimurium, UniProt P06179); sequence looked up; chain MAQVINTNSLSLLTQNNLNKSQSALGTAIERLSSGLRINSAKDDAAGQAIANRFTANIKGLTQASRNANDGISIAQTTEGALNEINNNLQRVRELAVQSANSTNSQSDLDSIQAEITQRLNEIDRVSGQTQFNGVKVLAQDNTLTIQVGANDGETIDIDLKQINSQTLGLDTLNVQQKYKVSDTAATVTGYADTTIALDNSTFKASATGLGGTDQKIDGDLKFDDTTGKYYAKVTVTGGTGKDGYYEVSVDKTNGEVTLAGGATSPLTGGLPATATEDVKNVQVANADLTEAKAALTAAGVTGTASVVKMSYTDNNGKTIDGGLAVKVGDDYYSATQNKDGSISINTTKYTADDGTSKTALNKLGGADGKTEVVSIGGKTYAASKAEGHNFKAQPDLAEAAATTTENPLQKIDAALAQVDTLRSDLGAVQNRFNSAITNLGNTVNNLTSARSRIEDSDYATEVSNMSRAQILQQAGTSVLAQANQVPQNVLSLLR
B5: hipA 2-437 D309Q (Escherichia coli, UniProt P23874); chain PKLVTWMNNQRVGELTKLANGAHTFKYAPEWLASRYARPLSLSLPLQRGNITSDAVFNFFDNLLPDSPIVRDRIVKRYHAKSRQPFDLLSEIGRDSVGAVTLIPEDETVTHPIMAWEKLTEARLEEVLTAYKADIPLGMIREENDFRISVAGAQEKTALLRIGNDWCIPKGITPTTHIIKLPIGEIRQPNATLDLSQSVDNEYYCLLLAKELGLNVPDAEIIKAGNVRALAVERFDRRWNAERTVLLRLPQEDMCQTFGLPSSVKYESDGGPGIARIMAFLMGSSEALKDRYDFMKFQVFQWLIGATQGHAKNFSVFIQAGGSYRLTPFYDIISAFPVLGGTGIHISDLKLAMGLNASKGKKTAIDKIYPRHFLATAKVLRFPEVQMHEILSDFARMIPAALDNVKTSLPTDFPENVVTAVESNVLRLHGRLSREY
B6: pnp 1-763 R431A (Mycobacterium smegmatis, UniProt A0QVQ5); chain MSVVELEDGVYESTAVIDNGSFGTRTIRFETGRLAQQAAGSAVAYLDDETMLLSATTASKNPKDHFDFFPLTVDVEERMYAAGRIPGSFFRREGRPSTDAILTCRLIDRPLRPSFVDGLRNEIQVVVTVMSLDPKDLYDVLAINAASMSTQLAGLPFSGPVGGARIALIDGTWVAFPTVEQLERAVFDMVVAGRIVGDGDSADVAIMMVEAEATENVVELVAGGAQAPTEAVVAEGLEAAKPFIKALCAAQQELADRAAKPAGEYPVFPDYEADVYDAVASVATEALAEALTIAGKTERNDRTDEIKVEVLERLAEPYAGREKEIGAAFRSLTKKLVRQRILTDHFRIDGRGITDIRALSAEVAVIPRAHGSALFERGETQILGVTTLDMIKMAQQIDSLGPENTKRYMHHYNFPPYSTGETGRVGSPKRAEIGHGALAERALVPVLPSIEEFPYAIRQVSEALGSNGSTSMGSVCASTLALLNAGVPLKAPVAGIAMGLVSDDVDVDGKVEKRYVALTDILGAEDAFGDMDFKVAGTKDFVTALQLDTKLDGIPSQVLAGALSQAKDARLTILDVMAEAIDRPDEMSPYAPRITTIKVPVDKIGEVIGPKGKMINSITEETGAQISIEDDGTVFVGAADGLSAQAAIDKINAIANPQLPKVGERFLGTVVKTTDFGAFVSLLPGRDGLVHISKLGKGKRIAKVEDVVKVGDKLRVEIADIDNRGKISLVLVAEESAESAESAGDKGAEKAEGAAADVTPAEA
B7: coat protein 2-130 (bacteriophage MS2, UniProt P03612); chain ASNFTQFVLVDNGGTGDVTVAPSNFANGVAEWISSNSRSQAYKVTCSVRQSSAQNRKYTIKVEVPKVATQTVGGVELPVAAWRSYLNMELTIPIFATNSDCELIVKAMQGLLKDGNPIPSAIAANSGIY
B8: ureR (Escherichia coli, UniProt P32326); chain MEYKFFLSESQMVLKAFYIESAMIAMLTGAKGNIVINGQSIEIESDVTLIIPKYSQVSCNIVCNTVKQPLELHTLSMSAEELQAVFLLLKTLMKSGAPLTSHQPIYHISPPETVRDNFSLLKQCLPLKKQSASQEALLMKQSLYFILMAIYQEGIDILNLFRFNYDEPKNQAITHLITQEPQKKWHLDDVAKALFTTPSTLRRHLNREGVSFRQLLLDVRMGMALNYLTFSNYSVFQISHRCGFGSNAYFCDVFKRKYNMTPSQFRLQSRQSNDPNFITNLSLRSNPIEFDKEIDE
B9: pnp 1-763 F68A (Mycobacterium smegmatis, UniProt A0QVQ5); chain MSVVELEDGVYESTAVIDNGSFGTRTIRFETGRLAQQAAGSAVAYLDDETMLLSATTASKNPKDHFDAFPLTVDVEERMYAAGRIPGSFFRREGRPSTDAILTCRLIDRPLRPSFVDGLRNEIQVVVTVMSLDPKDLYDVLAINAASMSTQLAGLPFSGPVGGARIALIDGTWVAFPTVEQLERAVFDMVVAGRIVGDGDSADVAIMMVEAEATENVVELVAGGAQAPTEAVVAEGLEAAKPFIKALCAAQQELADRAAKPAGEYPVFPDYEADVYDAVASVATEALAEALTIAGKTERNDRTDEIKVEVLERLAEPYAGREKEIGAAFRSLTKKLVRQRILTDHFRIDGRGITDIRALSAEVAVIPRAHGSALFERGETQILGVTTLDMIKMAQQIDSLGPENTKRYMHHYNFPPYSTGETGRVGSPKRREIGHGALAERALVPVLPSIEEFPYAIRQVSEALGSNGSTSMGSVCASTLALLNAGVPLKAPVAGIAMGLVSDDVDVDGKVEKRYVALTDILGAEDAFGDMDFKVAGTKDFVTALQLDTKLDGIPSQVLAGALSQAKDARLTILDVMAEAIDRPDEMSPYAPRITTIKVPVDKIGEVIGPKGKMINSITEETGAQISIEDDGTVFVGAADGLSAQAAIDKINAIANPQLPKVGERFLGTVVKTTDFGAFVSLLPGRDGLVHISKLGKGKRIAKVEDVVKVGDKLRVEIADIDNRGKISLVLVAEESAESAESAGDKGAEKAEGAAADVTPAEA
B10: HigA 1-104 (Proteus vulgaris, UniProt Q7A224); selenomethionine; sequence looked up; chain MRQFKVSHPGEMIARDLEDMGVSGRRFAHNIGVTPATVSRLLAGKTALTPSLSIRIAAALGSTPEFWLRLQSNYDLRQLENQIDTSGIVLYGESNEQQQNAQEH
B11: EspA native filaments (Escherichia coli, UniProt Q47184); chain MDTSTTASVASANASTSTSMAYDLGSMSKDDVIDLFNKLGVFQAAILMFAYMYQAQSDLSIAKFADMNEASKESTTAQKMANLVDAKIADVQSSSDKNAKAQLPDEVISYINDPRNDITISGIDNINAQLGAGDLQTVKAAISAKANNLTTTVNNSQLEIQQMSNTLNLLTSARSDMQSLQYRTISGISLGK

Molecule	tested on	assay	system	setting	scale	measurement	result
B1 (pnp 1-763 D532A)	itself	SEC				binding	binds
B2 (NFR5 276-595 V294E/Y297E/V298E)	itself	dynamic light scattering				binding	binds
B3 (mpr N176A)	itself	cross-linking		with: GTP		binding	binds
B4 (fliC mature)	itself	fluorescence microscopy				binding	binds
B5 (hipA 2-437 D309Q)	itself	crystal structure				binding	binds
B6 (pnp 1-763 R431A)	itself	SEC				binding	binds
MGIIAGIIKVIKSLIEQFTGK (psmA1 (Staphylococcus aureus, UniProt H9BRQ5); N-terminal formyl; sequence looked up)	itself	cryo-EM	peptide			binding	binds
B7 (coat protein 2-130)	itself	SEC				binding	binds
B8 (ureR)	itself	SEC				binding	binds
B9 (pnp 1-763 F68A)	itself	SEC				binding	binds
insulin human		item: CAMK4 mRNA	uninfected mouse, brain	i.p., dose not given	reference: PBS	fold change	1.28
B10 (HigA 1-104)	itself	X-ray crystallography				binding	binds
B11 (EspA native filaments)	itself	AFM imaging				binding	binds

A few entries again:
Molecule	tested on	assay	system	setting	scale	measurement	result
B3 (mpr N176A)	itself	cross-linking		with: GTP		binding	binds
